Assay results from different studies.
Compare with care: the assays were run in different laboratories. Numbers after ± are the reported error.

| SMILES | test | test system | setting | scale | inhibition |
| --- | --- | --- | --- | --- | --- |
| CN[C@@H]1COc2c(S(=O)(=O)NC(=O)Nc3c4c(cc5c3CCC5)CCC4)cnn2C1 | item: IL-18 | human participants, whole blood ex vivo | 1800 mg single dose, 24 h, IL-18, circulating, adjusted for, with: LPS/ATP | reference: baseline | 102% |
| CC[C@@H]1[C@H](F)C(=O)N[C@@H]1COc1nccc2cc(C(N)=O)c(OC)cc12 | ATP-site probe binding, ActivX profiling, item: PCTAIRE2, PCTAIRE3 | THP-1 cell lysate | 0.2 mM, Lys1 site |  | 0.425% |
| O=C1Nc2ccccc2C1=Cc1ccccn1 | platelet aggregation | platelet-rich plasma | 1 µM, with: ADP 5 µM |  | 26.5% |
| NCC(=O)Nc1cncc(-c2nn3c(=O)cc(N4CCNCC4)nc3s2)c1 | ADP-induced platelet aggregation, light transmission aggregometry | human, stable CAD on aspirin, ex vivo platelets | subcutaneous, 0.05 mg/kg, 60 min post-dose, median value, with: ADP 20 µM |  | 46.2% |
| CSCCNc1nc(SCCC(F)(F)F)nc2c1ncn2[C@@H]1O[C@H](COP(=O)(O)OP(=O)(O)C(Cl)(Cl)P(=O)(O)O)[C@@H](O)[C@H]1O | platelet aggregation, light transmission aggregometry | human patients, platelet-rich plasma | dose not given, 3 h, with: TRAP 5 µM |  | 28.9 ± 32.6% |
| CN(C)c1ncnc2c1ncn2[C@@H]1O[C@H](CCl)[C@@H](NC(=O)[C@@H](CSC(c2ccccc2)c2ccccc2)NC(=O)OC(C)(C)C)[C@H]1O | protein synthesis, item: GFP | human cell-free translation | 25 µM |  | 0% |
| COc1cc(C(=O)NS(=O)(=O)c2ccccc2C)ccc1Cc1cn(C)c2ccc(NC(=O)OC3CCCC3)cc12 | P-selectin exposure, flow cytometry, item: P-selectin | human platelet-rich plasma | 30 µM, with: CRP 5 µg/mL |  | 17% |
| Cc1cnc(N2CC3(CCOCC3)C2)c(C(=O)Nc2ccc(C(=O)N3CCc4cc(C(=O)Nc5c(C)cccc5F)sc4-c4ccccc43)cc2)c1 | item: IP-10 | human RSV infection, plasma | dose not given, AUC, ITT-IS population | reference: placebo | -30% |

Excerpt of the above:
| SMILES | test | test system | setting | scale | inhibition |
| --- | --- | --- | --- | --- | --- |
| CN[C@@H]1COc2c(S(=O)(=O)NC(=O)Nc3c4c(cc5c3CCC5)CCC4)cnn2C1 | item: IL-18 | human participants, whole blood ex vivo | 1800 mg single dose, 24 h, IL-18, circulating, adjusted for, with: LPS/ATP | reference: baseline | 102% |
